Experimental data collected from several papers.
Compare with care: the assays were run in different laboratories. “And” joins repeats or separate records; there may be more than shown. Numbers after ± are the reported error.
serotonin receptor-like protein: serotonin receptor-like protein (Schistosoma mansoni, UniProt A0A173FEI8)
ptpB: Triple specificity protein phosphatase PtpB (ptpB, Mycobacterium tuberculosis, UniProt I6WXK4)
Chain of UniProt Q01959 (whole entry, unmodified, looked up): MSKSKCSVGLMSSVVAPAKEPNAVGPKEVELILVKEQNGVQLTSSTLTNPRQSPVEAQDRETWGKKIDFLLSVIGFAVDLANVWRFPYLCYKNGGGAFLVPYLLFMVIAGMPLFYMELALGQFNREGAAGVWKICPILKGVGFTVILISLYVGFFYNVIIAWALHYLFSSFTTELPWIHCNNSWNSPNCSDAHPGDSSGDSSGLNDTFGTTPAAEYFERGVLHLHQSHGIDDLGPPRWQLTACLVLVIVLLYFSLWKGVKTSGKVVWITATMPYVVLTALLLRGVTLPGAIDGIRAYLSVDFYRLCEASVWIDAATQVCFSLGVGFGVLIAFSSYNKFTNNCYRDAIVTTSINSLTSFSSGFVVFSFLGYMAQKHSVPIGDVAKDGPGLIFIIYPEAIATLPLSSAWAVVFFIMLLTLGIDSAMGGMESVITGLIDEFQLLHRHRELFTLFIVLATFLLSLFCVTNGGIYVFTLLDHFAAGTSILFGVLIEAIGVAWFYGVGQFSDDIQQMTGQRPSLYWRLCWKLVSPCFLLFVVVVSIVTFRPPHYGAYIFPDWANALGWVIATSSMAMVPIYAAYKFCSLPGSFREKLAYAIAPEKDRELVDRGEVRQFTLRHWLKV
Chain of UniProt I6WXK4 (whole entry, looked up): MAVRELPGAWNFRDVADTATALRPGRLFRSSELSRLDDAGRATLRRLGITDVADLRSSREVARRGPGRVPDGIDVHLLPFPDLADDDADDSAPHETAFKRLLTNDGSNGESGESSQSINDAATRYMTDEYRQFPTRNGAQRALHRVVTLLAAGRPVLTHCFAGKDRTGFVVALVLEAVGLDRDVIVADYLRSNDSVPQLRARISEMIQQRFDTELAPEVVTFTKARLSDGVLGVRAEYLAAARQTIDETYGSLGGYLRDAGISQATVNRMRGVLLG
Chain of UniProt Q13418 (whole entry, looked up): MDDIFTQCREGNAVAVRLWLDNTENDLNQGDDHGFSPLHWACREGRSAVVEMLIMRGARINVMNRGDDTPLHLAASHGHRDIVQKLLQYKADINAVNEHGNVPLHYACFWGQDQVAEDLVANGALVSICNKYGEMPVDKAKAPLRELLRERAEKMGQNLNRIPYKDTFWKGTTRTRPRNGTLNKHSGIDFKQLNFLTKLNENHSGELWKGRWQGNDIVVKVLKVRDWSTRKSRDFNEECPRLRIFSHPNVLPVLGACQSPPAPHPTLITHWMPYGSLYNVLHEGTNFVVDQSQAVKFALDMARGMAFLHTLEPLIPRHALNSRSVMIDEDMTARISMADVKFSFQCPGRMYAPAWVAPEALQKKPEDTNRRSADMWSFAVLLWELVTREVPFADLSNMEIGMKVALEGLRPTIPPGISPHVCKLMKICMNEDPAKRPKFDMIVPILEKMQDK
Chain of UniProt P9WPA5 (whole entry, looked up): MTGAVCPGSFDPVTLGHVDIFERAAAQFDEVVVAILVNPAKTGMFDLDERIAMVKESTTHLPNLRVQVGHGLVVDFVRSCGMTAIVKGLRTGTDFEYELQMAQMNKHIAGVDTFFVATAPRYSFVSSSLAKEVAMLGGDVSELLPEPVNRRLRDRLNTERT
Chain of UniProt P11150 (whole entry, looked up): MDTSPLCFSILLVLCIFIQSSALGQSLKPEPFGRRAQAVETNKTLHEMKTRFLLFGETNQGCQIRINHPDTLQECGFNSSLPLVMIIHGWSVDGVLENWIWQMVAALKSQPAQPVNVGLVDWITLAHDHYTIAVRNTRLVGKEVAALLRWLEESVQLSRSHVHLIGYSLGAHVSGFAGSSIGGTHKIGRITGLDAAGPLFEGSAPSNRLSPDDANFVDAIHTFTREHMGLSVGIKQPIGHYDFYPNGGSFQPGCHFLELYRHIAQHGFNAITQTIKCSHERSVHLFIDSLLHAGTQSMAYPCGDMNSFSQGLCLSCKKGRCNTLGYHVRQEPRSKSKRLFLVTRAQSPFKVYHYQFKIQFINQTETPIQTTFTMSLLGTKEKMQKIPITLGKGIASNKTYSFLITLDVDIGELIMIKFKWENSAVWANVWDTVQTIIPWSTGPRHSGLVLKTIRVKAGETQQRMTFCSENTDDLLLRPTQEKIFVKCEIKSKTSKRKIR
Chain of UniProt P21554 (whole entry, looked up): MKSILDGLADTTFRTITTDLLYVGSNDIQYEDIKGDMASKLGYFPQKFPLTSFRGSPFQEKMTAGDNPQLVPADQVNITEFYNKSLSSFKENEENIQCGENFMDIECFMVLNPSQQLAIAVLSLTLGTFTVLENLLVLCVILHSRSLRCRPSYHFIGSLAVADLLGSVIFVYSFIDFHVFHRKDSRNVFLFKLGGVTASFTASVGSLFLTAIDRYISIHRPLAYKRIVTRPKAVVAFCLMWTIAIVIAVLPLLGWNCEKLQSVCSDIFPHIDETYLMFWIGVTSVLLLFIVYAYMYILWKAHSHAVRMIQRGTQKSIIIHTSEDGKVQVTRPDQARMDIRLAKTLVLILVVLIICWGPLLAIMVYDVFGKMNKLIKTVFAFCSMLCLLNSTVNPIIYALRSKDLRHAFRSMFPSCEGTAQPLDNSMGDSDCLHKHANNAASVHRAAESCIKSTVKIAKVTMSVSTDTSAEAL
Chain of UniProt P30536 (whole entry, looked up): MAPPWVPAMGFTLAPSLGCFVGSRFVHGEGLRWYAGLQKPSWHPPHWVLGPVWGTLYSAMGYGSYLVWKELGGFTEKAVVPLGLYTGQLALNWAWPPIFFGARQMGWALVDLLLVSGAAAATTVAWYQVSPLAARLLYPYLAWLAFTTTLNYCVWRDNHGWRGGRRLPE
Chain of UniProt P08912 (whole entry, looked up): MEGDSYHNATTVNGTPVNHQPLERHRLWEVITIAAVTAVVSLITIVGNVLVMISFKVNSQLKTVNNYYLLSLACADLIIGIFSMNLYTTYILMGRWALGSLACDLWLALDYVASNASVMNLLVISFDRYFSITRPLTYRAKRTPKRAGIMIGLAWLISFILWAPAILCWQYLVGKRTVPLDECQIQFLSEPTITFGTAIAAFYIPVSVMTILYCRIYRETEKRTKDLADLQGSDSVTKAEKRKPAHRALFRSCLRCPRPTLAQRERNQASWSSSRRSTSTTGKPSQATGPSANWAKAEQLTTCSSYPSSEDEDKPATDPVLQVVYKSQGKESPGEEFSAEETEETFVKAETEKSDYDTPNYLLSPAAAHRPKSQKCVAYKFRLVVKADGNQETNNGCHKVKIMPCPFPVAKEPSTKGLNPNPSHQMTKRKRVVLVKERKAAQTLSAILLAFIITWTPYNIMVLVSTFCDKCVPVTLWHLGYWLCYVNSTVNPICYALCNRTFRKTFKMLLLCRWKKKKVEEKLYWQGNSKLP
Chain of UniProt P29371 (whole entry, looked up): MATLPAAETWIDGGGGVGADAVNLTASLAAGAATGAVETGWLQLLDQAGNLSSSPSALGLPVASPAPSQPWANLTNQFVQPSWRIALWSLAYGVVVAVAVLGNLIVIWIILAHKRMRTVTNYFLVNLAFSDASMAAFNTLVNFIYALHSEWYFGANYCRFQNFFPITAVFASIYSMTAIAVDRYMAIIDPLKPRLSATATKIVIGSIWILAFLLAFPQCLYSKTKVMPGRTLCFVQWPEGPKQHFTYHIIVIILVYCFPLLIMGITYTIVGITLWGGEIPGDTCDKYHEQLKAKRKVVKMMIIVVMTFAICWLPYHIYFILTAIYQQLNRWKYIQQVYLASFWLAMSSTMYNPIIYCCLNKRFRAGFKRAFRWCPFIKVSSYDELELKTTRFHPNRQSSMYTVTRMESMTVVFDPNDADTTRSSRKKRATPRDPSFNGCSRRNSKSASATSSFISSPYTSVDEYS
Chain of UniProt Q8NET8 (whole entry, unmodified, looked up): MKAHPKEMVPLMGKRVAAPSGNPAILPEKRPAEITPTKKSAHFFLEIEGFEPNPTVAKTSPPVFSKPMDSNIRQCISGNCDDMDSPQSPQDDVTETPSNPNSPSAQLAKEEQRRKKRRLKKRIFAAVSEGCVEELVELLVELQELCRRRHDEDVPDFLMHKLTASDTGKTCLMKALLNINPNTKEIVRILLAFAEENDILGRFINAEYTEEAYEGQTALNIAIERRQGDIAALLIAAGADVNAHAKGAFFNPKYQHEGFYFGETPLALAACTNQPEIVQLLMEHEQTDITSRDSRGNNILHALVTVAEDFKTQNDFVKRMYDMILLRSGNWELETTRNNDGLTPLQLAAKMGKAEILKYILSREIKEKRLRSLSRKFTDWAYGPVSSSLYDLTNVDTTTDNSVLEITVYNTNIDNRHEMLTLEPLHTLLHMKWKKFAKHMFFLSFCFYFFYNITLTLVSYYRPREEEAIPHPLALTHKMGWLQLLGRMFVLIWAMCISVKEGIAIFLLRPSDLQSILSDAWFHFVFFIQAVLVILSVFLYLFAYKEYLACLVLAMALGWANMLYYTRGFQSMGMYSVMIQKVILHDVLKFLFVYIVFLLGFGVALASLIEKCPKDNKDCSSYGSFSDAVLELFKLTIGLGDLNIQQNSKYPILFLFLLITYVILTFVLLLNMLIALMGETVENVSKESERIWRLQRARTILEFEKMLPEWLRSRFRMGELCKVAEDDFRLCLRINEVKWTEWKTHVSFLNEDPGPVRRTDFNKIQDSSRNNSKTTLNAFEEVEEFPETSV
Chain of UniProt Q7NDN8 (whole entry, unmodified, looked up): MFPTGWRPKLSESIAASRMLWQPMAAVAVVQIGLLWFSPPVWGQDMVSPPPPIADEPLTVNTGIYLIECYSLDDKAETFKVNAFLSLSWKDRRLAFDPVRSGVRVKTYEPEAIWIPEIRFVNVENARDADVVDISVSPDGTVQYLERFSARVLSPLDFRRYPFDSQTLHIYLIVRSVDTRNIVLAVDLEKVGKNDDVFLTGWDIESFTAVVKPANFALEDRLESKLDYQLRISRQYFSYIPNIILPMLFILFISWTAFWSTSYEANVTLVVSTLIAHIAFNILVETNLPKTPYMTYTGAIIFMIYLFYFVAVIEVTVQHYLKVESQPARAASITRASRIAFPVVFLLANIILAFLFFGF

COc1ccc2[nH]cc(CCN(C)C)c2c1  Emax (serotonin receptor-like protein; cAMP level, agonist, GloSensor luminescence; baseline: 5-HT maximal response): 4%
C[C@]12CC[C@H]3[C@@H](CC=C4CC(O)CC[C@@]43CO)[C@@H]1CCC2O (stereo partly shown)  thermal shift (TSPO (Homo sapiens, UniProt P30536); cellular thermal shift; Huh-7; 100 µM; baseline: DMSO): ≤ 10 °C
CCCCCCCC[C@H]1O[C@H]1C/C=C/C=C/[C@H](O)CC(=O)NC1=C[C@](C)(CC)OC1=O  ΔH (Na(+)-translocating NADH-quinone reductase subunit B, whole Na+-NQR complex (nqrB, Vibrio cholerae serotype O1, UniProt Q9KPS2); isothermal titration calorimetry; 20 °C): -35 ± 0.96 kcal/mol
CC(C)[C@@H]1NC(=O)[C@H](Cc2ccccc2)NC(=O)[C@@H]2NC(=O)[C@H](Cc3ccccc3)NC(=O)[C@@H]3CCCN3C(=O)CNC(=O)[C@H](Cc3ccccc3)NC(=O)[C@@H]3CNCCCC[C@@H](C(=O)O)NC(=O)[C@@H]4NC(=O)[C@H](CC(N)=O)NC(=O)CNC(=O)[C@H]([C@@H](O)C(=O)O)NC(=O)[C@H](CSC[C@@H](NC(=O)[C@H](CCC(N)=O)NC(=O)[C@H](CCCCNC(=O)c5ccc(NN)nc5)NC(=O)[C@@H](N)CS[C@H]4C)C(=O)N[C@@H](CS[C@H]2C)C(=O)N3)NC1=O [technetium-99m labelled]  tissue uptake (rat, saline control, stomach; intravenous, 2 h after tracer, tracer 24 h after reperfusion): 0.09 ± 0.03 %ID/g
CN(C)CCc1c[nH]c2ccccc12  Emax (serotonin receptor-like protein; cAMP level, agonist, GloSensor luminescence; baseline: 5-HT maximal response): 2 ± 1%
COc1cc2c(Oc3ccc4[nH]c(C)cc4c3F)ccnc2cc1OCC1(N)CC1  grade 1 or 2 Fever (paediatric recurrent refractory sarcoma; 12 mg): 9.1%
O=C(O)c1cnn(-c2ccccc2)c1OCCc1c[nH]c2ccccc12  binding stoichiometry (Phosphopantetheine adenylyltransferase (coaD, Mycobacterium tuberculosis, UniProt P9WPA5); ITC; concentration not given; ligand per protomer): 0.7
O=C1Nc2ccc(S(=O)(=O)N3CCOCC3)c3cccc1c23  activity (ptpB; enzyme activity, inhibitor; concentration not given): inactive
C=CCN(CC=C)CCc1c[nH]c2ccc(OC)cc12  Emax (serotonin receptor-like protein; cAMP level, agonist, GloSensor luminescence; baseline: 5-HT maximal response): 3 ± 1%
NS(=O)(=O)c1ccc2c3c(cccc13)C(=O)N2  activity (ptpB; enzyme activity, inhibitor; concentration not given): inactive
C[C@@H](O)[C@@H](CO)NC(=O)[C@@H](CCCNC(=N)N)NC(=O)[C@@H]1CCCN1C(=O)[C@@H]1CSSC[C@H](NC(=O)[C@H](Cc2ccccc2)NC(=O)CN2CCN(CC(=O)O)CCN(CC(=O)O)CCN(CC(=O)O)CC2)C(=O)N[C@@H](Cc2ccc(O)cc2)C(=O)N[C@@H](Cc2ccccc2)C(=O)N[C@@H](CCC(N)=O)C(=O)N[C@@H](CC(N)=O)C(=O)N1 [gallium-68 labelled]  tissue uptake (healthy Wistar rat, liver; intravenous, 8 MBq, 120 min, individual animals): 0.06 %ID/g
CC[C@H](C)[C@@H]1NC(=O)[C@@H]2CCCN2C(=O)[C@H](CC(C)C)NC(=O)[C@H](CC(C)C)NC(=O)CNC(=O)[C@@H](NC(=O)[C@@H](NC(=O)[C@H](CC(=O)O)NC(=O)CNC(=O)[C@@H](NC(=O)[C@H](C)NC(=O)CNC(=O)[C@H](CCCCN)NC(=O)[C@H](CC(C)C)NC(=O)[C@H](CC(C)C)NC(=O)[C@H](CCCCN)NC(=O)CNC(=O)[C@@H](NC(=O)[C@@H](N)CC(C)C)C(C)C)C(C)C)C(C)C)CSSC[C@@H](C(=O)O)NC1=O  log2 fold change (RNA-seq, item: Gm13889 mRNA; mouse traumatic brain injury, frontal cortex and hippocampus; dose not given; baseline: TBI plus compound vs TBI): -1.41
COC(=O)c1cccc(N2N=C(C)C(C(=O)Nc3cccc(C(C)(F)F)c3)C2=O)c1 (stereo not shown)  remaining activity (Acetyl-CoA synthetase (Cryptococcus neoformans, UniProt J9VFT1); 50 µM): 104% and 109%
CN[C@]1(c2ccccc2Cl)CCCCC1=O  inhibition (sigma receptor; radioligand binding, agonist, radioligand displacement; 30 µM): 23%
O=C1C=CC(=O)c2ccccc21  free energy difference (Reaction center protein L chain, QB site (pufL, Cereibacter sphaeroides, UniProt P0C0Y8); Rhodobacter sphaeroides, reaction centres; with: kBP 0.4 s^-1): 520 meV
COc1ccc2c(c1)[nH]c1c(C)nccc12  remaining activity (Dyrk1a (Rattus norvegicus, UniProt Q63470); enzyme activity; 2 µM): 9.6 ± 5.2%
CN1CC[C@@]2(C)c3cc(OC(=O)Nc4ccccc4)ccc3N(C)[C@@H]12  inhibition (human nicotinic α2β4 receptor; radioligand binding; 10 µM, with: [3H]epibatidine): 0%
CO[C@H]1/C=C/O[C@@]2(C)Oc3c(C)c(O)c4c(O)c(c(/C=N/N5CCN(C6CCCC6)CC5)c(O)c4c3C2=O)NC(=O)/C(C)=C\C=C\[C@H](C)[C@H](O)[C@@H](C)[C@@H](O)[C@@H](C)[C@H](OC(C)=O)[C@@H]1C  thermal stabilization (dppA (Mycobacterium tuberculosis, UniProt I6X811); thermal shift; dose response): > 2 °C
C[C@H]1CN(c2n[nH]c3nc(N[C@H]4CC[C@H](NS(=O)(=O)CCC(F)(F)F)CC4)ncc23)CCO1  relative abundance (ILK (Homo sapiens, UniProt Q13418); inhibitor, Kinobeads competition profiling; 0.032 µM; baseline: vehicle): 1.04
CC(C)C[C@@H]1NC(=O)[C@H](CC(C)C)NC(=O)[C@H](Cc2c[nH]c3ccccc23)NC(=O)[C@H](CO)NC(=O)[C@H](Cc2c[nH]c3ccccc23)NC(=O)[C@@H]2CCCN2C(=O)[C@H](CC(C)C)NC(=O)[C@H](Cc2c[nH]cn2)NC(=O)[C@@H]2CCCN2C(=O)[C@H](CC(N)=O)NC(=O)[C@H](C)NC(=O)[C@H](Cc2ccc(O)cc2)NC(=O)[C@H](CS)NC(=O)[C@H](CCCCNC(=O)CN2CCN(CC(=O)O)CCN(CC(=O)O)CCN(CC(=O)O)CC2)NC1=O [lutetium-177 labelled]  tissue uptake (Balb/c mouse, female, 4T1 tumour, liver; intravenous, 3.7 MBq, 1 h): 20.4 ± 4.82 %ID
COc1ccc2[nH]cc(CCN)c2c1  Emax (serotonin receptor-like protein; cAMP level, agonist, GloSensor luminescence; baseline: 5-HT maximal response): 49 ± 11%
COC(=O)[C@@H](NC(=O)c1nn(Cc2ccc(F)cc2)c2ccccc12)C(C)(C)C  maximal efficacy (Cannabinoid receptor 1, with Gi2 (CNR1, Homo sapiens, UniProt P21554); GTP turnover, agonist, item: Gi2 Gα subtype): 111%
CC(NC(C)(C)C)C(=O)c1cccc(Cl)c1 (stereo not shown)  IC50 shift (Proton-gated ion channel (glvI, Gloeobacter violaceus, UniProt Q7NDN8, T256F); proton-gated current, inhibitor, two-electrode voltage clamp; Xenopus oocytes; baseline: T214F mutant over wild type): 13 fold
COc1cc(Nc2ncc(F)c(Nc3ccc4c(n3)NC(=O)C(C)(C)O4)n2)cc(OC)c1OC  IC50 (CHRM5 (Homo sapiens, UniProt P08912)): > 10 µM
C=CCN1CC[C@]23c4c5ccc(O)c4O[C@H]2C(=O)CC[C@]3(O)[C@H]1C5  inhibition (TACR3 (Homo sapiens, UniProt P29371); concentration not given): 16.3%
CC[C@H](C)[C@H](NC(=O)[C@H](Cc1ccccc1)NC(=O)[C@H](CCC(=O)O)NC(=O)[C@H](CCCNC(=N)N)NC(=O)[C@H](C)NC(=O)[C@H](C)NC(=O)[C@H](CCC(N)=O)NC(=O)[C@H](CCC(=O)O)NC(=O)[C@H](CCC(=O)O)NC(=O)[C@H](CC(C)C)NC(=O)[C@H](Cc1ccc(O)cc1)NC(=O)[C@H](CO)NC(=O)[C@H](CO)NC(=O)[C@@H](NC(=O)[C@H](CC(=O)O)NC(=O)[C@H](CO)NC(=O)[C@@H](NC(=O)[C@H](Cc1ccccc1)NC(=O)[C@@H](NC(=O)CNC(=O)[C@H](CCC(=O)O)NC(=O)[C@H](C)NC(=O)CCc1c[nH]cn1)[C@@H](C)O)[C@@H](C)O)C(C)C)C(=O)N[C@@H](C)C(=O)N[C@@H](Cc1c[nH]c2ccccc12)C(=O)N[C@@H](CC(C)C)C(=O)N[C@H](C(=O)N[C@@H](CCCNC(=N)N)C(=O)NCC(=O)N[C@@H](CCCNC(=N)N)C(=O)N[C@@H](CCCCNC(=O)COCCOCCNC(=O)COCCOCCNC(=O)CC[C@H](NC(=O)CCCCCCCCCCCCCCCCC(=O)O)C(=O)O)C(=O)NCC(=O)NCC(=O)N[C@@H](CO)C(=O)N[C@@H](CCCCNc1c(NCCCCCN(O)C(=O)CCC(=O)NCCCCCN(O)C(=O)CCC(=O)NCCCCCN(O)C(C)=O)c(=O)c1=O)C(=O)O)C(C)C [zirconium-89 labelled]  tissue uptake (rat, stomach; iv, 3 nmol/kg, 24 h, ex vivo): 0.31 %ID/g
c1ccc2cc([C@]34CNC[C@H]3C4)ccc2c1  dopamine uptake (SLC6A3 (Homo sapiens, UniProt Q01959, F326A); inhibitor, [3H]dopamine uptake; 10 nM, F326A mutant; baseline: no inhibitor): 111% and 97.8% and 112%
Oc1ccc2c3c1O[C@H]1[C@@H](O)CC[C@@]4(O)[C@@H](C2)N(CC2CCC2)CC[C@]314  log2 fold change (GPR52 (Homo sapiens, UniProt Q9Y2T5); β-arrestin recruitment, TANGO luminescence; concentration not given; baseline: basal luminescence): -0.09
COc1ccc(N2C(=O)N(c3c(C)cccc3Cl)Cc3cnc(Nc4ccc(C5CCN(C)CC5)cc4OC)nc32)nc1  inhibition (ATR (Homo sapiens, UniProt Q13535); kinase activity; 0.5 µM): -10%
COC(=O)C[C@@H]1N=C(c2ccc(F)c(Cl)c2)c2cc(OC)ccc2-n2c(C)nnc21  selectivity ratio (BRD4 and BRD2 full-length, human; binding, SPR; baseline: BRD4 over BRD2, higher = BRD4-selective): ~2.6 fold
O=C1Nc2ccc(S(=O)(=O)NCCO)c3cccc1c23  activity (ptpB; enzyme activity, inhibitor; concentration not given): inactive
O=C(O)C[C@H](NC(=O)[C@H](CC(=O)O)NC(=O)[C@H](CC(=O)O)NC(=O)[C@H](CC(=O)O)NC(=O)[C@H](CC(=O)O)NC(=O)[C@H](CC(=O)O)NC(=O)[C@H](CC(=O)O)NC(=O)[C@H](CC(=O)O)NC(=O)[C@H](CC(=O)O)NC(=O)[C@H](CC(=O)O)NC(=O)[C@H](CC(=O)O)NC(=O)[C@H](CCCCNC(=O)c1ccc(C(=O)NCCOCCOB2BBBBBB3BBBB3B2)cc1)NC(=O)CN1CCN(CC(=O)O)CCN(CC(=O)O)CCN(CC(=O)O)CC1)C(=O)O [gallium-67 labelled]  tissue uptake (ddY male mice, small intestine; intravenous, 37 kBq, 3 h): 0.2 %ID/g
CCCc1cc(O)c2c(c1)OC(C)(C)[C@@H]1CCC(C)=C[C@@H]21  Hill coefficient (TRPV3 (Homo sapiens, UniProt Q8NET8, L563A); calcium uptake, agonist; HEK293S; mutant L563A, site 1): 1.88 ± 0.1
O=C(c1ccc(Cl)cc1)N1CCN2C(=O)N(OC(=O)N3CCOc4ccccc43)C(=O)C2C1 (stereo not shown)  median protein ratio (Hepatic triacylglycerol lipase (Homo sapiens, UniProt P11150); MS-based ABPP; SW-620 conditioned medium; 10 µM, 1 h, 37 °C; baseline: compound over DMSO, lower = more inhibition): 1.14

Excerpt of the above:
O=C(O)c1cnn(-c2ccccc2)c1OCCc1c[nH]c2ccccc12  binding stoichiometry (Phosphopantetheine adenylyltransferase (coaD, Mycobacterium tuberculosis, UniProt P9WPA5); ITC; concentration not given; ligand per protomer): 0.7
COc1cc(Nc2ncc(F)c(Nc3ccc4c(n3)NC(=O)C(C)(C)O4)n2)cc(OC)c1OC  IC50 (CHRM5 (Homo sapiens, UniProt P08912)): > 10 µM
CC(C)[C@@H]1NC(=O)[C@H](Cc2ccccc2)NC(=O)[C@@H]2NC(=O)[C@H](Cc3ccccc3)NC(=O)[C@@H]3CCCN3C(=O)CNC(=O)[C@H](Cc3ccccc3)NC(=O)[C@@H]3CNCCCC[C@@H](C(=O)O)NC(=O)[C@@H]4NC(=O)[C@H](CC(N)=O)NC(=O)CNC(=O)[C@H]([C@@H](O)C(=O)O)NC(=O)[C@H](CSC[C@@H](NC(=O)[C@H](CCC(N)=O)NC(=O)[C@H](CCCCNC(=O)c5ccc(NN)nc5)NC(=O)[C@@H](N)CS[C@H]4C)C(=O)N[C@@H](CS[C@H]2C)C(=O)N3)NC1=O [technetium-99m labelled]  tissue uptake (rat, saline control, stomach; intravenous, 2 h after tracer, tracer 24 h after reperfusion): 0.09 ± 0.03 %ID/g
CO[C@H]1/C=C/O[C@@]2(C)Oc3c(C)c(O)c4c(O)c(c(/C=N/N5CCN(C6CCCC6)CC5)c(O)c4c3C2=O)NC(=O)/C(C)=C\C=C\[C@H](C)[C@H](O)[C@@H](C)[C@@H](O)[C@@H](C)[C@H](OC(C)=O)[C@@H]1C  thermal stabilization (dppA (Mycobacterium tuberculosis, UniProt I6X811); thermal shift; dose response): > 2 °C
